Measured values gathered from unrelated publications.
Numbered parts are unrelated; each lists some results of a single study.

Block 1 — method: RNA Bind-n-Seq; molecule type: RNA; sample: in vitro; concentration: 200 nM; setting: whole 134-nt RNA, ends assumed; together with: 150 mM LiCl; baseline: input library; direction: higher = stronger binding; endpoint: log2 enrichment; all molecules: 7-deaza-guanosine replaces G
Target: Fragile X messenger ribonucleoprotein 1, C-terminal low-complexity region (Fmr1, Mus musculus, UniProt P35922)
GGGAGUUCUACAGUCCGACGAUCUGGCCCUGGUGGCAUGCGGGGAGGAAGAGGUGGCCUCAUGGAUCGUGGUGGUCCCGGUGGAAUGUUCAGAGGUGGCCGUGGUGGGGACAGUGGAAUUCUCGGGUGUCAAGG: -0.486
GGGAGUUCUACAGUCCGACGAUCUGGCCCUGGUGGCAUGCGGGGAGGAAGAGGUGGCCUCAUGGAUCGUGGUGUUCCCGGUGGAAUGUUCAGAGGUGGCCGUGGUGGAGACAGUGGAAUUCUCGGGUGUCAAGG: -0.167
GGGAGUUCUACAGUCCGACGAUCAGUCCUGUGCUACACAUCGUAUGUACCGAAUCGGGAAAAAGGGUUUUUGGGAAAGGGAAAGUAUUAUGUUACGCCGUUCGGAUCUGCACUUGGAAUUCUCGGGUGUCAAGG: -2.3
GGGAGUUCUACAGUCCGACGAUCAGUCCUGUGCUACACAUCGUAUGUACCGAAUCAAACCCAAACCCAAACCCCCCCAAAAAAGUAUUAUGUUACGCCGUUCGGAUCUGCACUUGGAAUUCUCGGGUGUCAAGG: 0.251
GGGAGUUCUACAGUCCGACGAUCUAACUUUAGAGGAGGAUCUGGUGGAUAUGGCAGUGGACGUGGAUUUGGGGAUGGCUAUAAUGGGUAUGGAGGAGGACCUGGAGGUGGCAAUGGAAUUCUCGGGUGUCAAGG: 0.461
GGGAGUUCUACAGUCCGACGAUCUGGGAGGUGGAUUUUGUUUAUUUUUUUAGCUCAUUUCCAGGGGUGGGAAUUUUUUUUUAAUAUGUGUCAUGAAUAAAGUUGUUUUCGAAAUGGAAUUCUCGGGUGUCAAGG: -0.0157
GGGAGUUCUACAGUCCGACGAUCUCCUGUGCUACACAUCGUAUGUACCGAAUCGGGGAAAAAGGGGUUUUUUUGGGGUGGGGAAAGUAUUAUGUUACGCCGUUCGGAUCUGCAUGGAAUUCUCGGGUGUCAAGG: -0.643
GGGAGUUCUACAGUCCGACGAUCUGGGAGGUGGAUUUUGUUUAUUUUUUUAGCUCAUUUGCAGGGGUGGGAAUUUUUUUUUAAUAUGUGUCAUGAAUAAAGUUGUUUUUGAAAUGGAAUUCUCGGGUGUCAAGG: 1.45

Block 2 — method: RNA Bind-n-Seq; molecule type: RNA; sample: in vitro; concentration: 365 nM; baseline: no-protein control; direction: higher = stronger binding; endpoint: RBNS enrichment (R)
Target: RNA binding protein fox-1 homolog 2, RRM domain, GST-SBP tag (RBFOX2, Homo sapiens, UniProt O43251-10, residues 100-194)
Setting: natural RNA segment, single round, ends assumed
Construct (chain): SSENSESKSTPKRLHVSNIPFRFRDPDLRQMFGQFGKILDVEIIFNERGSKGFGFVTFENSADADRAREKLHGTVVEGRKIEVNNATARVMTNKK
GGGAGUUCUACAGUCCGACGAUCGUCCCAACGUUCUAGCACCCCCCUCUUCUCCUUUCUCUGUCCCCCAUUUUCCAGGGGGUUUAUGGUCAGGGCUCCCCAACCUGAGUUGGGCUACUUCCAAGGGCAGCCAGUGGAAUUCUCGGGUGCCAA: 0.679
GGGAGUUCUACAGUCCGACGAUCUCUAGAUGUAUGGGCAGGGCUGCACCAAGGCCUGGGCAUGCUUCCUCAGGGUAUCAAAGGAGCCCUUUGCUGUGAACCUGGCUAGGAAUGCAAGAUGACUCAGAGUAUAGUGGAAUUCUCGGGUGCCAA: 1.87
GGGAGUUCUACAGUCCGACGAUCGGAAACAUCCUCUCACUUGCAUUCUUUUAACUUAAAACUAUUUAAGAACUGAUGUUCCGAUUAUUGUAUAUAUUUUUCUAAAAACCAAAUAAAGCUACCUAUGAAAAUGAUGGAAUUCUCGGGUGCCAA: 0.929
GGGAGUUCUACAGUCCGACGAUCGUCCUCCAGAAGCCUCUGGCUAGAGGCCAGCCCCACCCAGGAGGGAGGGGGCUAUAGCUACAGGAAGCACCCCAUGCCAAAGCUAGGGUGGCCCUUGCAGUUCAGCACCAUGGAAUUCUCGGGUGCCAA: 0.173
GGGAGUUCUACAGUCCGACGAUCCCCAAACUGCCCGGUGGUCCGCCUCUCAGGACAGAGGUGCAACAUUUGGGAGUUUAUGCAAGGUGGCUGGGCUUUUAAGAACAACAUGGACAUCAGAAAUCACCAGAACCUGGAAUUCUCGGGUGCCAA: 0.372
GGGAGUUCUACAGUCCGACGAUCCAGUUCACUCUCCUGACUGUUCAGAAGCAUUUUGCUCUCUUUUGCAUUUUCUUUUACCUUUUUUUUCUAAUACUGCUUUGGUACUAGCCAGUGUGGGGAAGAGAUACAGUUGGAAUUCUCGGGUGCCAA: 3.19
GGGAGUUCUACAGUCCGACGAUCUGAUGUAUGAACACAAAACCCAAUAAAAAUCUUUGAAUAGGAGCCUGGAAGCUCAAGAAGAAAAUGAUCUGGCUUUGCAUUAAGUCACCUUUGUCACCUUCUCUGCCUCCUGGAAUUCUCGGGUGCCAA: 0.594
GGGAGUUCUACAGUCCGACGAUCAAGGGUUUCCACUCUGCACAUUGUAGAGGGAACACUCUGUAGGCCCAUGGGUCCCUUACUAGAGAGGUUGAGUGAAUUUGCCUUCAGUUAACAUGGGACCUUCUGUUUAGUGGAAUUCUCGGGUGCCAA: 0.314
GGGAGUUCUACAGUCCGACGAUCAAUAGCCAGAUAUGAGUUUAAACUUUUUUCAUGCUUGUAUAUUUUAUUUUUAACUAUAUACAAGUAUGAAAUCUAACAAUUUUCUAACAAAUUGUCUUAUAUAUGAAGCCUGGAAUUCUCGGGUGCCAA: 0.696

Block 3 — method: RNA Bind-n-Seq; molecule type: RNA; sample: in vitro; concentration: not given; baseline: input RNA pool; direction: higher = stronger binding; endpoint: bound/input enrichment
Target: RING finger protein unkempt homolog, zinc fingers 1-6, GST-SBP tag (UNK, Homo sapiens, UniProt Q9C0B0, residues 30-357)
Setting: RNA with constant flanks, human-mouse chimeric sites, ends assumed
Target sequence (chain): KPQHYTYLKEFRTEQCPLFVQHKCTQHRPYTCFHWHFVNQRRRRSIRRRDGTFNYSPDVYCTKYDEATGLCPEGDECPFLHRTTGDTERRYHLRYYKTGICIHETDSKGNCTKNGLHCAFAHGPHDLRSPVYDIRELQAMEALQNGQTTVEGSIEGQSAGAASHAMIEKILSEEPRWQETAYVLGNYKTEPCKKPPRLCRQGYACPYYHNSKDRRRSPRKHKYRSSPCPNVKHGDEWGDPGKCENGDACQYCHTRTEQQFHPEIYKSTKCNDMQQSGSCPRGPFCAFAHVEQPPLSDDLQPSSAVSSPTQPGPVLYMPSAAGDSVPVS
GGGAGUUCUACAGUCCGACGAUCAACUUCGUGCAUCGGUUUCCCUUUGUAGCUGUUUCAAUUGGCUUCCUUGUGAAUAAAGAGAUGGAGUUUGGAGUUGUGUACAGCUGUGUGGAAGAUAAGAUGUACACUGCCAGAAAAGGGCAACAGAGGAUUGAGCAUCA: 0.345 ratio
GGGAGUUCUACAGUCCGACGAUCAGAGAUAAGACAUCCAGGAACAUGCGAGGGUCACGGAUGAAUGGGUUGCCUAGCCCCACUCAUAGUGCCCACUGUAGCUUCUACCGAACCAGAACCUUGCAGGCACUGAGUAAUGAGAAGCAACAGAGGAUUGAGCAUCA: 0.248 ratio
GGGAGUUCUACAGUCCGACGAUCGAUCAUGAACCACCAUCAGAAAUGAAGAUGAGAUUACCCAAGACGAGCAAAACAGCUGCGCUACAGAAAAGUAAACUUUAACCUUGCGAGUUCCUUAAUGAAGAUACAAGUUAAGAGAGCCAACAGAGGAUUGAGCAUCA: 0.181 ratio
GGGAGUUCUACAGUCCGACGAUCGUGACAGGUGUUAAGAUUUACCCUCAGCAAAGAAGUGCAGUAGUCACCAUAAUUCCAUCUGUGGUGAGUGCCAGUCAGAUUGUGGAGCUGGUCCCAGACCUCAGUUUAGACAUGGGAACUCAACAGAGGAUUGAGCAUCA: 0.213 ratio
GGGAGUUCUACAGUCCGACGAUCACUCUUGACUCUUUCCAUUCUCGUCCCUUCCCUCUUGAUAUUCAAGGCCAUGAAUCCCAAAAUAGCUGUCUUAGUGGCUAGCACCCAAACAGAGGUGGAAUAAAUCCACCCCAGUGUCUCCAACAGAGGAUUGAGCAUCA: 0.791 ratio
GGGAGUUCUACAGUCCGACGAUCGCAGGAUCUUCUAAAUACCAGUGGGACAUUAUGAAAUCCCUUGGGCUCUCUGAUGACGACAUAGUGAAGUUUUCUGAAGCAGAGCACUGGCUUGAUUAUUUCCCACCACUGGCCGUUCAGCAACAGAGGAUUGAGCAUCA: 0.136 ratio
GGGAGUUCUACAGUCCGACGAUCGAGCGUCUUGCCCGCACUGGGAUCAUCGUGACCACUAGUGAGGCUGUCCUCCUACAGCUGGUGGCUGAUAAGGACCACCCGAAGUUCAAGGAAAUUCAGAAUCUAAUUAAGGCGAGUGCCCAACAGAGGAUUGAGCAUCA: 0.0914 ratio
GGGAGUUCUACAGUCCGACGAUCAUGGAACAUUUCGAUGCGUCACUCAGUACCUAUUUCAAGGCAUUGCUGGGCCCCCGAGAUACAAGAGUCAAAGGAUGGUUUCUUCUGGACAAUUACAUCCCUACGUUUGUCUGUUCUGUUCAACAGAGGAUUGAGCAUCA: 0.1 ratio
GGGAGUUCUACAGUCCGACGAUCGGUGGGGUGGUCAUUGCCGUUUGAGCUGCUGAUUUUCAUGAGUCGCCUUCAAAACUCUCGCAUAGGGUUGACAAUGUGGGGGGGUGGGGGAUCCAGCUUAUUCUUUUAUUUUCAAGUCCACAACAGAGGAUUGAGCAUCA: 0.438 ratio
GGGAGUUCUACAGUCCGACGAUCCACAGAGCAGCACCUACCCCCUCCUCCUUUCCACACCUGCAAACUCUUUUACUUGGGCUGAAUAUUUAGUGUUAAUUCAUCUCAGCUUUGAGGGCUCCCUGUGGCAAUUCCCGGAUUAAACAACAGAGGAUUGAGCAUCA: 1.01 ratio
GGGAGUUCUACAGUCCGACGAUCGGACAUCUGUCAAAUUGUUAUGUUCCUAAAAACGUAGUGAACACUCUGAUACACUUCAUCUGCUUGUACAUCUGUAUUUGUAUAAUAUGUAAAUAUGUUAAUCCAAGCAAUGUGUCACUUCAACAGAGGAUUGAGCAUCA: 0.148 ratio

Block 4 — method: aptamer microarray, sandwich; molecule type: DNA with 2'F-ANA; sample: in vitro; concentration: 200 nM; together with: Cy3 exosite-II aptamer, 400 nM; direction: higher = stronger binding; endpoint: mean fluorescence intensity; sequence: GGTTGGTGTGGTTGG
Target: Prothrombin, mature alpha-thrombin (F2, Homo sapiens, UniProt P00734)
Setting: whole 15-mer aptamer, many near background
2'F-ANA at 2 3 5 7 8 15: 123 a.u.
2'F-ANA at 1 6 7 10 13: 61.1 a.u.
2'F-ANA at 4 6 7 8 9 12 13 14: 91.7 a.u.
2'F-ANA at 1 2 5 6 7 8 10 11 13 15: 48.8 a.u.
2'F-ANA at 5 12: 207 a.u.
2'F-ANA at 3 5 6 8 9 10 11 12 13 14 15: 49.4 a.u.
2'F-ANA at 1 3 4 5 6 8 10: 97.1 a.u.
2'F-ANA at 3 4 6 7 11 12 14: 318 a.u.
2'F-ANA at 2 5 9 11 12 13 15: 83.9 a.u.
2'F-ANA at 4 7 8 9 13 14 15: 92.8 a.u.
2'F-ANA at 3 5 7 8 10 11 12 13: 112 a.u.
2'F-ANA at 1 2 5 6 10 12 14 15: 50.5 a.u.
2'F-ANA at 2 4 7 8 12 14: 203 a.u.
2'F-ANA at 2 7 11 12 14 15: 195 a.u.
2'F-ANA at 1 5 6 7 9 11 12 13: 65.1 a.u.
2'F-ANA at 1 4 9 11: 113 a.u.
2'F-ANA at 2 6 7 8 10 11 13: 103 a.u.
2'F-ANA at 3 5 7 9 10 12: 71.8 a.u.
2'F-ANA at 3 5 6 7 9 11 12: 173 a.u.
2'F-ANA at 2 4 7 9 11 12 13 14 15: 99.2 a.u.
2'F-ANA at 1 2 3 5 9 10 14 15: 49.8 a.u.
2'F-ANA at 1 2 5 7 8 9 10 12 13 15: 48.4 a.u.

A few entries again (block 3):
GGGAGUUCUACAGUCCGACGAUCGAGCGUCUUGCCCGCACUGGGAUCAUCGUGACCACUAGUGAGGCUGUCCUCCUACAGCUGGUGGCUGAUAAGGACCACCCGAAGUUCAAGGAAAUUCAGAAUCUAAUUAAGGCGAGUGCCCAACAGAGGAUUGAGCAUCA: 0.0914 ratio
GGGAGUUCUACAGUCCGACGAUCAACUUCGUGCAUCGGUUUCCCUUUGUAGCUGUUUCAAUUGGCUUCCUUGUGAAUAAAGAGAUGGAGUUUGGAGUUGUGUACAGCUGUGUGGAAGAUAAGAUGUACACUGCCAGAAAAGGGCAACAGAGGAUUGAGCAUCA: 0.345 ratio
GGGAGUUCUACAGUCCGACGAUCAUGGAACAUUUCGAUGCGUCACUCAGUACCUAUUUCAAGGCAUUGCUGGGCCCCCGAGAUACAAGAGUCAAAGGAUGGUUUCUUCUGGACAAUUACAUCCCUACGUUUGUCUGUUCUGUUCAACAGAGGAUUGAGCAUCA: 0.1 ratio
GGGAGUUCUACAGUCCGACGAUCGCAGGAUCUUCUAAAUACCAGUGGGACAUUAUGAAAUCCCUUGGGCUCUCUGAUGACGACAUAGUGAAGUUUUCUGAAGCAGAGCACUGGCUUGAUUAUUUCCCACCACUGGCCGUUCAGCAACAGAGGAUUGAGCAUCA: 0.136 ratio
